Measurements collected from several papers.
Every numbered part comes from another study and shows a few of its results, in no order. Positions count from the first letter of the parent shown.

Study 1
Target: Fragile X messenger ribonucleoprotein 1, C-terminal low-complexity region (Fmr1, Mus musculus, UniProt P35922)
Technique: RNA Bind-n-Seq
Molecule type: RNA
Medium: in vitro
Tested at: 200 nM
Setting: whole 134-nt RNA, ends assumed
Added: 150 mM KCl
Reference: input library
Reading: higher = stronger binding
Quantity: log2 enrichment
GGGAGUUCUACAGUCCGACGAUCCCUGUGCUACACAUCGUAUGUACCGAAUCGGAAAAAAGGGGAAAAAAGGGGAAAAAAGGGAAAGUAUUAUGUUACGCCGUUCGGAUCUGCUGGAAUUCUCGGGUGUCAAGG: -0.409
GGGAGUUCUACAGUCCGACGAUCUCCUGUGCUACACAUCGUAUGUACCGAAUCGGGGAAAGGGGUUUUUGGGGAAAAAGGGGAAAGUAUUAUGUUACGCCGUUCGGAUCUGCAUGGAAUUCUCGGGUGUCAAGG: 0.565
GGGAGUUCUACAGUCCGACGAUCCUGUGCUACACAUCGUAUGUACCGAAUCGGGUUUUUUUGGGUUUUUUUGGUUUUUUUGGGGAAAGUAUUAUGUUACGCCGUUCGGAUCUGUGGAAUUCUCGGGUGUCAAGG: -0.866
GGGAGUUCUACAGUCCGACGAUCUCUAACUAAUUUUUCUUUGUUUUUUAACAGGAGAGGAGAUACUUACCCUUAAGUCAAGCCAGAAAAAGUGGUUUCCAAAUGGAUUGGCUGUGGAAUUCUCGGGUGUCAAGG: -1.1
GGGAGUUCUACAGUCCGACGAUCUUGGGUUCAAUAUACGGAGAGUGCCCUGUGCCAAAGCCACGAGUUGAUCGUCCAAGAAAAGUUCCUGUGAUACAAGAGGAGAGGGCAAUGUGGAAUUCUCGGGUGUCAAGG: -1.47
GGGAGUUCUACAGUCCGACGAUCCCUCAAGUCCUGUGCUACACAUCGUAUGUACCGAAUCGGGUGGUGGGUGGGGAAAGUAUUAUGUUACGCCGUUCGGAUCUGCACUUCCAGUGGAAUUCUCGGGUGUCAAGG: 1.17
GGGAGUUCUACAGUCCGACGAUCAGUCCUGUGCUACACAUCGUAUGUACCGAAUCGGUUUUUGGUUUUUGGGUUUUUGGGGAAAGUAUUAUGUUACGCCGUUCGGAUCUGCACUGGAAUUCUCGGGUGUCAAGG: -0.363
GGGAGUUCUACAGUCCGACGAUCGUGCUACACAUCGUAUGUACCGAAUCGGGGCCCCCCCGGGGCCCCCCCGGGGCCCCCCCGGGGAAAGUAUUAUGUUACGCCGUUCGGAUCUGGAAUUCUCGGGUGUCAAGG: -2
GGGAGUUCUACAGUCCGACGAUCAGUCCUGUGCUACACAUCGUAUGUACCGAAUCGGGUUUUUGGGUGGGAAAAAAAGGGAAAGUAUUAUGUUACGCCGUUCGGAUCUGCACUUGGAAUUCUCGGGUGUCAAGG: 0.291

Study 2
Target: ABI1, truncated, D143A, DHFR fusion (Arabidopsis thaliana)
Technique: DHFR PCA, deep sequencing
Medium: yeast
Setting: methotrexate growth selection, single substitutions
Added: (+)-ABA 0.0091 µM
Reference: wild-type fitted maximum
Reading: higher = stronger binding
Quantity: relative binding score
Starting sequence: PYL1, truncated, DHFR fusion (Arabidopsis thaliana); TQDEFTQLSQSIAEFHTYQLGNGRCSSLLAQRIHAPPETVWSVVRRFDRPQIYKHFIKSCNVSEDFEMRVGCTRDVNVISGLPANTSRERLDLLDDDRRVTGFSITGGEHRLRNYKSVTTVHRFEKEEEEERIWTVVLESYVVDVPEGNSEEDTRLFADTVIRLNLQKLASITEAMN
L29T: 1.69%
V121D: 1.17%
S26F: 1.44%
V62R: -0.124%
V70T: 3.26%
P146V: 30.4%
E174M: -3.14%

Study 3
Target: CCNB3, cyclin fold, Cln2 fusion (human)
Technique: yeast growth competition, sequencing
Medium: yeast
Setting: weak parent motif
Reference: not given
Reading: higher = stronger binding
Quantity: normalised enrichment score
Starting sequence: MASTL docking peptide (human); PMIAKNLMCELDE
PMAAKNLMCELDE [I3A]: -0.0163
PMIVKNLMCELDE [A4V]: 0.454
PMIPKNLMCELDE [A4P]: 0.382
PMDAKNLMCELDE [I3D]: -0.123
PMIAKGLMCELDE [N6G]: -0.12
PMIAKNLMTELDE [C9T]: -0.0701
PMIAKNKMCELDE [L7K]: 0.122
PMIAKNLMYELDE [C9Y]: -0.325
PMIAKNLMPELDE [C9P]: -0.0966
PRIAKNLMCELDE [M2R]: 0.0861
PMIAKNLMCELSE [D12S]: -0.042

Mixed results
PhoQ, residues 284 288 289 292 302 303 MLMVEA  fold induction (PhoP, residues 12 14 15 18 19 NFCKL (Escherichia coli, UniProt P23836); Sort-seq, refers to: YFP reporter; E. coli; PhoQ-PhoP variant library, added: 10 µM Mg2+; reference: high Mg2+ state, higher = stronger signaling): 17.6

Excerpt of the above (study 1):
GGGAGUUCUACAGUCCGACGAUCCCUCAAGUCCUGUGCUACACAUCGUAUGUACCGAAUCGGGUGGUGGGUGGGGAAAGUAUUAUGUUACGCCGUUCGGAUCUGCACUUCCAGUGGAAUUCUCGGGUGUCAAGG: 1.17
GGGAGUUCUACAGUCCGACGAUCCUGUGCUACACAUCGUAUGUACCGAAUCGGGUUUUUUUGGGUUUUUUUGGUUUUUUUGGGGAAAGUAUUAUGUUACGCCGUUCGGAUCUGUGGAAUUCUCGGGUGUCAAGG: -0.866
